Experimental data gathered from unrelated publications.
Numbered parts are unrelated; each lists some results of a single study.

Sample 1
Target: Histone acetyltransferase KAT6A, winged helix 1, GST fusion (KAT6A, Homo sapiens, UniProt Q92794, residues 1-85)
Technique: protein binding microarray
Form: double-stranded DNA, one strand shown
Matrix: in vitro
Tested at: not given
Notes: 8-mer, flanks averaged, mean of 2 arrays, mostly near background
Baseline: not given
Reading: higher = stronger binding
Measurement: E-score
Construct (chain): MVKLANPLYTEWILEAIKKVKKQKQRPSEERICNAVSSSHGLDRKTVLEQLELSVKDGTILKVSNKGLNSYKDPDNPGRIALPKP
GTTTGATA: -0.154
GTACTTTA: -0.0941
CTAATTTA: -0.0291
GCCCCAGA: -0.0469
AGAATTGG: -0.271
CATTTTGA: -0.225
GGTCTCAC: -0.105
GGCAGGCC: 0.0666
AGGTGCTA: -0.11
AGTGACCC: -0.0453
CTTTTTTA: -0.093
CCCTGTCC: -0.0861
CCGTCGCA: 0.43
GACGGTCC: 0.23
GCCCGTCC: 0.328
AGGGTAAG: -0.207
AGCCGTTG: 0.212
ACATATCT: -0.107
CACACCGA: 0.0816
AGGCTACT: -0.235

Sample 2
Target: Ras GTPase-activating protein-binding protein 1, RRM domain (G3BP1, Homo sapiens, UniProt Q13283)
Sequence of UniProt Q13283 (whole entry, looked up): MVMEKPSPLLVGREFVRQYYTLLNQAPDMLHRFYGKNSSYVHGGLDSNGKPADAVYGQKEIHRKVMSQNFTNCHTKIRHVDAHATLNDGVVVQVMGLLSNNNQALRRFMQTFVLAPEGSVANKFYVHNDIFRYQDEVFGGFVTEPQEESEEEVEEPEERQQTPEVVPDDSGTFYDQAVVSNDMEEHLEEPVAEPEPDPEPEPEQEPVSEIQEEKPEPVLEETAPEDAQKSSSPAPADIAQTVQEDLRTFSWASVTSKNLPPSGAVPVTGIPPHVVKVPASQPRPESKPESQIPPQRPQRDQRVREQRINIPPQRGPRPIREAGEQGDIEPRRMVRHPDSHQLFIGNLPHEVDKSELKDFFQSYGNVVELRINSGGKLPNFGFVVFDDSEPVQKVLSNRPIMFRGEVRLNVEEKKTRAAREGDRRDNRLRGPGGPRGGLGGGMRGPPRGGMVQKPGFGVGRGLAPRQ
Technique: RNA Bind-n-Seq
Form: RNA
Matrix: in vitro
Tested at: 1 µM
Notes: whole 134-nt RNA, ends assumed
With: 150 mM KCl
Baseline: input library
Reading: higher = stronger binding
Measurement: log2 enrichment
Shared flanks, not repeated: GGGAGUUCUACAGUCCGACGAUC … UGGAAUUCUCGGGUGUCAAGG
AGUCCUGUGCUACACAUCGUAUGUACCGAAUCGGUUUUUGGAAAAAGGAAAAAAAGGAAAGUAUUAUGUUACGCCGUUCGGAUCUGCACU: 0.0366
CCUGUGCUACACAUCGUAUGUACCGAAUCGGGGUUUUUUGGGGUUUUUUGGUUUUUUGGGAAAGUAUUAUGUUACGCCGUUCGGAUCUGC: -0.22
CCUGUGCUACACAUCGUAUGUACCGAAUCGGGGAAAAAAAGGGGUUUGGGGUUUUUGGGGAAAGUAUUAUGUUACGCCGUUCGGAUCUGC: 0.941
UGGCUCUGGUGGCAUGCGGGGAGGAAGAGGUGGCCUCAUGGAUCGUGGUGGUCCCGGUGGAAUGUUCAGAGGUGGCCGUGGUGGAGACAG: 0.58
UCCUGUGCUACACAUCGUAUGUACCGAAUCGGUUUUUUGGUUUUUUGGGUUUUUUGGGGAAAGUAUUAUGUUACGCCGUUCGGAUCUGCA: -0.249
UCCCUGAAUCACCGACUGGAGGAGAGUUACCUACAAGAGCCUUCAUCCAGGAGCAUCCACACUGCAAUGAUAUAGGAAUGAGGUCUGAAC: -0.15
UUUUCUUCUGGGGCAUUUAUCCGUGCUGAUCUUGGUGAAUGGGGCAUGAGUCUAACGAUCAGAGCCCCUAGUGUAGAUUACAGAAACACU: -0.165
UCAAGUCCUGUGCUACACAUCGUAUGUACCGAAUCGGAAAAAGGUGGAAAAAGGAAAGUAUUAUGUUACGCCGUUCGGAUCUGCACUUCC: -0.125
AAGUCCUGUGCUACACAUCGUAUGUACCGAAUCGGGUUUGGGGUUUGGGGUUUGGGGAAAGUAUUAUGUUACGCCGUUCGGAUCUGCACU: 0.655

Sample 3
Target: RNA binding protein fox-1 homolog 2, RRM domain, GST-SBP tag (RBFOX2, Homo sapiens, UniProt O43251-10, residues 100-194)
Technique: RNA Bind-n-Seq
Form: RNA
Matrix: in vitro
Tested at: 365 nM
Notes: natural RNA segment, single round, ends assumed
Baseline: no-protein control
Reading: higher = stronger binding
Measurement: RBNS enrichment (R)
Shared flanks, not repeated: GGGAGUUCUACAGUCCGACGAUC … UGGAAUUCUCGGGUGCCAA
Residues (chain): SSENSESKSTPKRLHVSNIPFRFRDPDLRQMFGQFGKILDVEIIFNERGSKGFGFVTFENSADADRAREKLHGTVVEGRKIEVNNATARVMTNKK
UCUUCUUUUUCUAGCAUGCUUUACAUAGGAGAGAAUAAAGGGCUAUUUAAUAAGCAAUCCGGAUCUCAGAGAACAUAGUAAUACUGUCUAGUUUAAAGCCUGCAGUAAAG: 1.94
UACAGCACAAUGCCAGACAGUUAUGCCGCGUGUAUCCCAGUGGUCUGAGGACAGAUUCAUCCAACUUUAACCCCCAGGAACACUGGAAUGUAGGCUGCCAGAUGGGGGCU: 0.615
CCUAGAGCAGUGUCACAAGCUUCAGUAAGGCCAGUCAGCUGGAAGUCAGUCUACCGUAUAGUAACACUGUAUGUCAGUCUACAGACCACACUCUAGUUGUUUUCCAUGAA: 0.254
UAGGGGCAAAGGCGUGUGGAUGGUGCCAAUGAAACCCUUUACCUAUUUAAUAAAAACGGAUACAUUUAUACUGUGGACAGCUUUCUUUGGGGCAUACCAUAGUCUCCCUA: 0.752
GUAGAGGGAGAGCCAUGUACUUGGGAGUAGGCUGAAGUACCUAACAGUGUAGGGUAAAGAACAGAAUUGGAACAGAACUAAGGCUGUUGCUUUCAUAGCAUCUCAGACUA: 0.514
CCGGCUAAAGUUGCAGCUGUUGUAUCUGGUUUCUGUGAGUCCUGCACCAAGUUCAGCCCAAAAUGAUAUUCUUUUCAGUCCUGUGGGGGAAGGACCGGCUUUAUCUCAUG: 1.23
AUGAAUGCACUGCAUAAAAACUUUGUAGCUUCAUUAUUGUAAAACAUAUUCAAGAUCCUACAGUAAGAGUGAAACAUUCACAAAGAUUUGCGUUAAUGAAGACUACACAG: 0.519
GAGUGUGGCUGAUGGCCUGGGAGGUGGGUUUUCCAUAAUCAUUUCCAUUUGCUAGUUCUCAUGUGAUAUGCAACGGUCCAAGAUGGUUAUCUGAAUCAGGAUAGAACACC: 0.565

Sample 4
Target: RING finger protein unkempt homolog, zinc fingers 1-6, SBP tag (UNK, Homo sapiens, UniProt Q9C0B0, residues 30-357)
Sequence of UniProt Q9C0B0 (30-357, looked up): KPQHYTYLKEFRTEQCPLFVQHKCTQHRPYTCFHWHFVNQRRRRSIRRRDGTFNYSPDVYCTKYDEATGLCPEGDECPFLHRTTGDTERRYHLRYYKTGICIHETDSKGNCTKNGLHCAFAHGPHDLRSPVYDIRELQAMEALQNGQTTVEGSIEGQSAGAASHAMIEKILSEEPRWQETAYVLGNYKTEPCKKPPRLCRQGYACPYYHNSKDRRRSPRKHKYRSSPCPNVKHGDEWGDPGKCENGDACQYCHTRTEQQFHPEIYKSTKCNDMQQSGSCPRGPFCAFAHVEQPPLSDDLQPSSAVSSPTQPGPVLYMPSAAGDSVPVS
Technique: RNA Bind-n-Seq
Form: RNA
Matrix: in vitro
Tested at: 100 nM
Notes: RNA with constant flanks, vertebrate orthologous sites, ends assumed
Baseline: input RNA pool
Reading: higher = stronger binding
Measurement: bound/input enrichment
Shared flanks, not repeated: GGGAGUUCUACAGUCCGACGAUC … CAACAGAGGAUUGAGCAUCA
CAUGACCUUGUUACUGUGAUAUUUUAAAUAUCCACAGUACUCACUUUUUCCAAAUGAUCCUAGUAAUUGCCUAGAAAUCUUUCUCUUACCUGUUAUUUAUCAAUUUUUCCCAGUAUUUUU: 1.48 ratio
UGUUGAUUUCUGAUUUCUAAUUUAUUUUGUUUUGUUAUGGUUUUUUGAUUUGCUAUACCAAAAUGGUGAUCGUAAAAAUUGACCUGUAAUGGGCGUUGCUAUAGUGACAUGCAUUAUGUU: 0.453 ratio
CUGUUGUUAAGCACUGUGUUCCAGACCUUGUCUGACUUUAGUGUAACCUAGGAGAUUUUAUAGUUUUAUUUUAAUGAAACCCUGAUUGGCACAGAGCAGUGGGAAAAGCAGUGUCUUUCA: 2.34 ratio
UGCUUUUAAAUAAACGUCUGUAAAUGUAUAUUGAGAGAAUUGAAGUAUUUAUAAACAGAGCGAUUUAUUUAAGGGAAAGGUCAUUCCUCUUUCAUACGUGAUCUGUGUUAAUUCCAUUCC: 0.223 ratio
AUCCUUUCGAGCUGUCUCCGGCCGGGGUCGAGGACCAGUCGUUUCAGCGAGGACCUGCAUUUCAAACAAUUUUUUAAAUUGUUGUAUAGGAAGAGAUGUGCCGAAAACAGCAUCUCAAAG: 0.275 ratio
AUCUCUCAUUUUCUAUGUCCAAAAAAGGUUUUGAAUUUUUAAACAAUUGCUAGUUUUGAUUAGCUUUGCCCUCAUGAAGUAUUAUAAUCCCCACAAACAGAUAUCUGUCUGAAUUACUUC: 0.775 ratio
GUGUUUUGUACAGGGCAUCACCCUCUGUACGAGUUUGUGGUUAUAAAAUAAUUAGUAAAACAGCUUACAUUUGUAUUUAUUUUCUAGUCCACACUUCUGUACCCGUUUUUUUCUCCCUUA: 0.503 ratio
GUCAUCUGACUGGAUGAAGACUGUUCCAAGUUAUAACCAAACAAAUAGCUCCGUGGACUUUAGAAAUUAUAUGAUGAGAGAUGAGACUCUGGAACCACUACCUAAAAACUGGGAGAUGGC: 1.12 ratio

Repeated from above (sample 2):
UCCUGUGCUACACAUCGUAUGUACCGAAUCGGUUUUUUGGUUUUUUGGGUUUUUUGGGGAAAGUAUUAUGUUACGCCGUUCGGAUCUGCA: -0.249
UCCCUGAAUCACCGACUGGAGGAGAGUUACCUACAAGAGCCUUCAUCCAGGAGCAUCCACACUGCAAUGAUAUAGGAAUGAGGUCUGAAC: -0.15
UUUUCUUCUGGGGCAUUUAUCCGUGCUGAUCUUGGUGAAUGGGGCAUGAGUCUAACGAUCAGAGCCCCUAGUGUAGAUUACAGAAACACU: -0.165
UCAAGUCCUGUGCUACACAUCGUAUGUACCGAAUCGGAAAAAGGUGGAAAAAGGAAAGUAUUAUGUUACGCCGUUCGGAUCUGCACUUCC: -0.125
AAGUCCUGUGCUACACAUCGUAUGUACCGAAUCGGGUUUGGGGUUUGGGGUUUGGGGAAAGUAUUAUGUUACGCCGUUCGGAUCUGCACU: 0.655
